Measurements collected from several papers.
Several values in a cell are separate wells, animals, samples, runs or records. ± marks the error that the study gave.
4'-phosphopantetheinyl transferase PptT: 4'-phosphopantetheinyl transferase PptT (Mycobacterium tuberculosis, UniProt O33336)
Sequence of UniProt P21554 (whole entry, unmodified, looked up): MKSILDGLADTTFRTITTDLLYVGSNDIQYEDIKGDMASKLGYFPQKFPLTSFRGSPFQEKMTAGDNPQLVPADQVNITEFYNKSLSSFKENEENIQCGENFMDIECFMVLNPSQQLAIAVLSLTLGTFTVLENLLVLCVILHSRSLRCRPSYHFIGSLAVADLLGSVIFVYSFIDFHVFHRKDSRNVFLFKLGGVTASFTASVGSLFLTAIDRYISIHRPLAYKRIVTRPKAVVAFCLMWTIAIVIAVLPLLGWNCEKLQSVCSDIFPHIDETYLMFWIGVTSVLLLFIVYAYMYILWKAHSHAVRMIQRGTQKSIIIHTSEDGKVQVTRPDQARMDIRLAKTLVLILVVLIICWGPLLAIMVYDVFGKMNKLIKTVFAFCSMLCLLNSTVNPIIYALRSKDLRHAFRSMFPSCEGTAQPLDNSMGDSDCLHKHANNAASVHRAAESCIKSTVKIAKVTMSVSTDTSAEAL
Sequence of UniProt O33336 (whole entry, looked up): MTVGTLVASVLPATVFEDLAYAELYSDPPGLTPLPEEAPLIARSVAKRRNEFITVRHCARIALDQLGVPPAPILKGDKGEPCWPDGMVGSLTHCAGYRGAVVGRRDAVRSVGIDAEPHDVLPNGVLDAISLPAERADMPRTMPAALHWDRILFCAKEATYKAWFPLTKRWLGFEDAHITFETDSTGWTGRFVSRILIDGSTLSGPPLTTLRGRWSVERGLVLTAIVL
Sequence of UniProt P55212 (whole entry, looked up): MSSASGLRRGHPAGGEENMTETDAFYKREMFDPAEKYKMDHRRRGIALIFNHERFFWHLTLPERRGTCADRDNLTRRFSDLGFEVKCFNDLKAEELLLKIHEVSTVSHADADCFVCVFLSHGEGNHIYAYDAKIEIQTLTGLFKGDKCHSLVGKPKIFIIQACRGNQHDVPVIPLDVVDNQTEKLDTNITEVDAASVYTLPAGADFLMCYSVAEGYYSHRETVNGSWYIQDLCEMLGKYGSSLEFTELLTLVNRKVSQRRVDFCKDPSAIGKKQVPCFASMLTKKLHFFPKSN
Sequence of UniProt P41586 (whole entry, looked up): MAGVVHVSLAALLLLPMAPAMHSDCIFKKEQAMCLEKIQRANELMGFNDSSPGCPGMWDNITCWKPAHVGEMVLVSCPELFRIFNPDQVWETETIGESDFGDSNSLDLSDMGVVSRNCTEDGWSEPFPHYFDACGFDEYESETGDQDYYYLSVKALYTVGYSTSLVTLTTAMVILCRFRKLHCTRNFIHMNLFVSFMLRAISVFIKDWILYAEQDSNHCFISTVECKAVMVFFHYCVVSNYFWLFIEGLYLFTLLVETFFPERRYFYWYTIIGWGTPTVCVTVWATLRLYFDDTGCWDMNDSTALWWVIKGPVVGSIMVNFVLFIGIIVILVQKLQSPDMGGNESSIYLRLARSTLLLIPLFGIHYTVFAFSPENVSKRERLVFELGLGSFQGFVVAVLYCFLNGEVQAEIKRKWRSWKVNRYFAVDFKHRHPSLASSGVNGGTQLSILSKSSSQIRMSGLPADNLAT
Sequence of UniProt P34972 (whole entry, unmodified, looked up): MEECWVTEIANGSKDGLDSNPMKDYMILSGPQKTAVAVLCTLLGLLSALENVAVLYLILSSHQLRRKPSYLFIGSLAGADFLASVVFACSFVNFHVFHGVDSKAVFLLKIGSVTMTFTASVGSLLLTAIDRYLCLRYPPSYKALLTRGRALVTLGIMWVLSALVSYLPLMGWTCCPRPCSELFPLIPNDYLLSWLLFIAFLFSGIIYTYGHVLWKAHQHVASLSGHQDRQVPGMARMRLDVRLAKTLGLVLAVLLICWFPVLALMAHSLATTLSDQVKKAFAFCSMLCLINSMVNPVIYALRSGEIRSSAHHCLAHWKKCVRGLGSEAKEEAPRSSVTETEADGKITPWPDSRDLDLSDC
Sequence of UniProt P41143 (whole entry, unmodified, looked up): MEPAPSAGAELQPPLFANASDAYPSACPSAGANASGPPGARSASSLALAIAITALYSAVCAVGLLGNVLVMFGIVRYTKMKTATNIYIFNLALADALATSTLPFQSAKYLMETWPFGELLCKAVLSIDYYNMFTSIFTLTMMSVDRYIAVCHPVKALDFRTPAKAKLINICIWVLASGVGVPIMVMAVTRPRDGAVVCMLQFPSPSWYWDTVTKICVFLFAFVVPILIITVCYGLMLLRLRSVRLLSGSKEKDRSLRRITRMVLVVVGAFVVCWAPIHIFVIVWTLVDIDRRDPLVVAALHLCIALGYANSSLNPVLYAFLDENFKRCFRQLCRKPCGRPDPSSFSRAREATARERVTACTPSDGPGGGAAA
Sequence of UniProt Q9H3N8 (whole entry, looked up): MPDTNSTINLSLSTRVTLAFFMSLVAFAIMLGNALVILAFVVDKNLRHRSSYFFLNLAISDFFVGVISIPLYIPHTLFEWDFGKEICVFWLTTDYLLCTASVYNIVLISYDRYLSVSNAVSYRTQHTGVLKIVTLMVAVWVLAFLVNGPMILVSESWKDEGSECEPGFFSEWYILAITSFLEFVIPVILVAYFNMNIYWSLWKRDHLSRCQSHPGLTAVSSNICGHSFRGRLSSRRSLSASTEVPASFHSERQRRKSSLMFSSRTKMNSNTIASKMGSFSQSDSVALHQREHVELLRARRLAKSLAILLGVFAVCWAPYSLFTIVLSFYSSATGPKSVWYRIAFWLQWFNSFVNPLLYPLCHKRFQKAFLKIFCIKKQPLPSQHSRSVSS

CCCCCn1cc(C(=O)c2cccc3c2CC(C)(C)C3)c2ccccc21  EC50 (Cannabinoid receptor 1 (CNR1, Homo sapiens, UniProt P21554); Gαi1 activation, agonist, BRET): 27.5 nM
Cc1nc2ccc(CN(C)c3ccc(C(=O)NC(CCC(=O)O)CC(=O)O)cc3)cc2c(=O)[nH]1 (stereo not drawn)  IC50 (4'-phosphopantetheinyl transferase PptT; enzyme activity, inhibitor, FP): 47 nM
CC(C)C[C@H](NC(=O)[C@H](CC(=O)O)NC(=O)[C@H](CCC(N)=O)NC(=O)[C@H](CC(N)=O)NC(=O)[C@H](CC(C)C)NC(=O)[C@@H](N)CCC(=O)O)C(=O)N[C@H]1CSSC[C@@H](C(=O)N[C@@H](CCCCN)C(=O)NCC(=O)N[C@@H](CO)C(=O)N[C@@H](CCCCNC(=O)CCCC[C@@H]2SC[C@@H]3NC(=O)N[C@@H]32)C(N)=O)NC(=O)[C@H](Cc2ccccc2)NC(=O)[C@H](Cc2ccc(O)cc2)NC(=O)[C@H](CC(=O)O)NC(=O)[C@H](C)NC(=O)[C@H](Cc2ccc(O)cc2)NC(=O)[C@H](CC(=O)O)NC1=O  Kd (anti-HA antibody 12CA5 (mouse); biolayer interferometry; 30 °C): < 1 nM
CC[C@H](C)[C@H](NC(=O)[C@H](CO)NC(=O)[C@H](CC(N)=O)NC(=O)[C@H](CC(C)C)NC(=O)[C@H](Cc1ccc(O)cc1)NC(=O)[C@H](CCCCN)NC(=O)[C@H](CCCCN)NC(=O)[C@@H](NC(=O)[C@H](C)NC(=O)[C@H](CCSC)NC(=O)[C@H](CCC(N)=O)NC(=O)[C@H](CCCCN)NC(=O)[C@H](CCCN=C(N)N)NC(=O)[C@H](CC(C)C)NC(=O)[C@H](CCCN=C(N)N)NC(=O)[C@@H](NC(=O)[C@H](Cc1ccc(O)cc1)NC(=O)[C@H](CC(N)=O)NC(=O)[C@H](CC(=O)O)NC(=O)[C@@H](NC(=O)[C@H](Cc1ccccc1)NC(=O)[C@@H](NC(=O)[C@H](C)NC(=O)[C@H](CC(=O)O)NC(=O)[C@H](CO)NC(=O)[C@@H](N)Cc1c[nH]cn1)C(C)C)[C@@H](C)O)[C@@H](C)O)C(C)C)C(=O)N[C@@H](CC(C)C)C(=O)N[C@@H](CC(N)=O)C(N)=O  EC50 (Pituitary adenylate cyclase-activating polypeptide type I receptor (ADCYAP1R1, Homo sapiens, UniProt P41586); G protein activation, agonist, BRET): 977 nM
CCOC(=O)CC[C@H](NC(=O)c1ccc(N(C)Cc2ccc3[nH]c(=O)ccc3c2)cc1)C(=O)OCC  IC50 (4'-phosphopantetheinyl transferase PptT; enzyme activity, inhibitor, fluorescence polarization; enzyme 100 nM): > 25000 nM
CC[C@H](C)[C@H](NC(=O)[C@H](CCCNC(=N)N)NC(=O)[C@@H]1CCCN1C(=O)[C@H](C)NC(=O)[C@H](CC(N)=O)NC(=O)[C@H](CCCNC(=N)N)NC(=O)[C@H](CCC(N)=O)NC(=O)[C@H](CC(N)=O)NC(=O)[C@H](CCC(N)=O)NC(=O)[C@@H]1CCCN1C(=O)CNC(=O)[C@H](CC(N)=O)NC(=O)[C@H](CC(=O)O)NC(=O)[C@H](CO)NC(=O)[C@@H](N)CCSC)C(=O)N[C@H](C(=O)N[C@@H](Cc1ccccc1)C(=O)NCC(=O)NCC(=O)N1CCC[C@H]1C(=O)N[C@@H](CO)C(=O)N[C@@H](CC(=O)O)C(=O)N[C@@H](CO)C(=O)N[C@H](C(=O)NCC(=O)O)[C@@H](C)O)[C@@H](C)O  Kd (Ras GTPase-activating protein-binding protein 1 (G3BP1, Homo sapiens, UniProt Q13283); binding): 8500 nM
CC[C@H](C)[C@H](NC(=O)[C@@H]1CCCN1C(=O)[C@H](CCC(=O)O)NC(=O)[C@H](CCSC)NC(=O)CNC(=O)[C@H](CC(N)=O)NC(=O)CNC(=O)CNC(=O)[C@H](CCC(=O)O)NC(=O)CNC(=O)[C@H](CCCNC(=N)N)NC(=O)[C@H](CCC(N)=O)NC(=O)[C@H](Cc1ccc(O)cc1)NC(=O)[C@H](CC(C)C)NC(=O)[C@H](CCCCN)NC(=O)[C@@H]1CCCN1C(=O)[C@H](CCC(N)=O)NC(=O)[C@H](C)NC(=O)[C@@H](NC(=O)[C@H](CCC(=O)O)NC(=O)[C@H](C)NC(=O)[C@H](CCC(=O)O)NC(=O)[C@@H](NC(=O)[C@@H]1CCCN1C(=O)[C@@H](N)CCCCN)C(C)C)C(C)C)C(=O)N1CCC[C@H]1C(=O)N[C@@H](CCC(=O)O)C(=O)N[C@@H](CC(=O)O)C(=O)N[C@@H](Cc1ccc(OS(=O)(=O)O)cc1)C(=O)N[C@@H](CC(C)C)C(=O)N[C@@H](CCC(N)=O)C(=O)O  Ki (Prothrombin, gamma-thrombin (F2, Homo sapiens, UniProt P00734); pH 8): 3160 ± 97 nM
CC(C)CC(C(=O)N1CC2(CC1C#N)C(=O)Nc1ccccc12)N(C)C(=O)c1cc2c(F)cc(F)c(F)c2[nH]1 (stereo not drawn)  IC50 (Caspase-6 (CASP6, Homo sapiens, UniProt P55212); enzyme activity, inhibitor): 2000 nM and 1990 nM
C#CCN(Cc1cc(Cl)c2nc(C)[nH]c(=O)c2c1)c1ccc(C(=O)N[C@H](CCC(=O)O)C(=O)O)cc1  IC50 (4'-phosphopantetheinyl transferase PptT; enzyme activity, inhibitor, FP): 48 nM
O=[N+]([O-])CC(c1ccco1)c1c(-c2ccccc2)[nH]c2ccccc12 (stereo not drawn)  EC50 (Cannabinoid receptor 1 (CNR1, Homo sapiens, UniProt P21554, V249A); G protein activation, agonist, BRET): 410 nM
CN(Cc1cnc2[nH]ccc2c1)c1ccc(C(=O)NC(CCC(=O)O)C(=O)O)cc1 (stereo not drawn)  IC50 (4'-phosphopantetheinyl transferase PptT; enzyme activity, inhibitor, fluorescence polarization; enzyme 100 nM): > 25000 nM
CCN(CC)C(=O)c1ccc(C(c2cccc(O)c2)N2CC(C)N(Cc3ccccc3)CC2C)cc1 (stereo not drawn)  Ki (Delta-type opioid receptor (OPRD1, Homo sapiens, UniProt P41143, M132A)): 1.47 ± 0.08 nM
CCCCCn1cc(C(=O)c2cccc3ccccc23)c2ccccc21  EC50 (Cannabinoid receptor 2 (CNR2, Homo sapiens, UniProt P34972, V261L); cAMP, agonist, BRET): 1.32 nM
C#CCN(Cc1ccc2nc(C)[nH]c(=O)c2c1)c1ccc(C(=O)NC(CCC(=O)O)C(=O)O)c(N)c1 (stereo not drawn)  IC50 (4'-phosphopantetheinyl transferase PptT; enzyme activity, inhibitor, FP): 47 nM
COc1ccccc1C(C[N+](=O)[O-])c1c(-c2ccccc2)[nH]c2ccccc12 (stereo not drawn)  EC50 (Cannabinoid receptor 1 (CNR1, Homo sapiens, UniProt P21554, Y172A); G protein activation, agonist, BRET): 250 nM
C#CCN(Cc1ccc2nc(C)[nH]c(=O)c2c1)c1ccc(C(=O)N[C@H](CCC(=O)O)C(=O)O)cc1  IC50 (4'-phosphopantetheinyl transferase PptT; enzyme activity, inhibitor, FP): 79 nM
CCN(CC)C(=O)[C@@H]1C=C2c3cccc4c3c(cn4C(=O)c3ccco3)C[C@H]2N(C)C1  Ki (Histamine H4 receptor (HRH4, Homo sapiens, UniProt Q9H3N8); ligand displacement, radioligand): > 10000 nM
Cc1ccc2c(C(C[N+](=O)[O-])c3cccs3)c(-c3ccccc3)[nH]c2c1 (stereo not drawn)  EC50 (Cannabinoid receptor 1, with Gz (CNR1, Homo sapiens, UniProt P21554); Gz dissociation, agonist, BRET; HEK293): 50 ± 10 nM
